Experimental data of several laboratories.
Lines come from different studies, so protocols differ. pIC50: −log10 of the molar value.
Cell line: L929

For C=C(C)C(=O)NCCCCCCCCCCOCc1cn(CCCCCCCCCCNC(=O)C(=C)C)n[n+]1C, the pIC50 was 4.69 (cell growth or viability; 72 h).
The pIC50 of CCCn1c(-c2cccnc2)nc(-c2ccc(C)cc2)c1-c1ccc(C)cc1 is reported as 4.58 (cell growth or viability, SRB).
The pIC50 of COc1cc(C(=O)c2[nH]c(N)nc2-c2cccs2)cc(OC)c1OC is reported as 5.78 (cell growth or viability, SRB).
CCCCCCCCn1c(-c2cccnc2)nc(-c2ccccc2)c1-c1ccccc1 gave a pIC50 of 4.21 (cell growth or viability, SRB).
[Cl][Au]1[P](c2ccccc2)(c2ccccc2)C[P](c2ccccc2)(c2ccccc2)[Au]([Cl])[P](c2ccccc2)(c2ccccc2)C[P]1(c1ccccc1)c1ccccc1 gave a pIC50 of 5.77 (cell growth or viability, trypan blue; 48 h).
For Cn1cncn1.[Ru+2].c1cc(-c2ccc3ccccc3n2)nc(-c2ccc3ccccc3n2)c1.c1ccc2cc3nc4c5cccnc5c5ncccc5c4nc3cc2c1, the phototherapeutic index was 14 (MTT; baseline: dark EC50 over light EC50).
CCCCn1c(-c2cccnc2)nc(-c2ccc(C)cc2)c1-c1ccc(C)cc1 has a pIC50 of 4.32 (cell growth or viability, SRB).
Cc1ccc(C(C)C)cc1.[Cl][Au].[Cl][Ru][Cl].c1ccc(P(CP(c2ccccc2)c2ccccc2)c2ccccc2)cc1 gave a pIC50 of 4.44 (cell growth or viability, trypan blue; 48 h).
COC(=O)c1ccc2c(c1)NC(=O)/C2=C(\Nc1ccc(N(C)C(=O)CN2CCN(CCOCCOCCNC(=O)c3cc(OCc4cn(CCCCN5C[C@@H]6C[C@H]5C(=O)N[C@@H](CC(C)C)C(=O)N[C@@H](CCCNC(=N)N)C(=O)NCC(=O)N[C@@H](CC(=O)O)C(=O)N[C@@H](CC(C)C)C(=O)N6)nn4)cc(OCc4cn(CCCCN5C[C@@H]6C[C@H]5C(=O)N[C@@H](CC(C)C)C(=O)N[C@@H](CCCNC(=N)N)C(=O)NCC(=O)N[C@@H](CC(=O)O)C(=O)N[C@@H](CC(C)C)C(=O)N6)nn4)c3)CC2)cc1)c1ccccc1 — result for “mean fluorescence intensity”: “decreased” (cell internalization, flow cytometry; 5 µM, 24 h).
CC(=O)Nc1ccc(OC(=O)CCC(=O)[O][Pt-2]23([O]C(=O)CCC(=O)Oc4ccc(NC(C)=O)cc4)([NH2+][C@@H]4CCCC[C@H]4[NH2+]2)[O]C(=O)C(=O)[O]3)cc1 has a pIC50 of 4.11 (cell growth or viability, MTT; 48 h).

Excerpt of the above:
[Cl][Au]1[P](c2ccccc2)(c2ccccc2)C[P](c2ccccc2)(c2ccccc2)[Au]([Cl])[P](c2ccccc2)(c2ccccc2)C[P]1(c1ccccc1)c1ccccc1 gave a pIC50 of 5.77 (cell growth or viability, trypan blue; 48 h).
Cc1ccc(C(C)C)cc1.[Cl][Au].[Cl][Ru][Cl].c1ccc(P(CP(c2ccccc2)c2ccccc2)c2ccccc2)cc1 gave a pIC50 of 4.44 (cell growth or viability, trypan blue; 48 h).
